Measured values of several laboratories.
Numbered parts are unrelated; each lists some results of a single study.

Set 1
Target: Ras GTPase-activating protein-binding protein 1, RRM domain (G3BP1, Homo sapiens, UniProt Q13283)
Sequence of UniProt Q13283 (whole entry, looked up): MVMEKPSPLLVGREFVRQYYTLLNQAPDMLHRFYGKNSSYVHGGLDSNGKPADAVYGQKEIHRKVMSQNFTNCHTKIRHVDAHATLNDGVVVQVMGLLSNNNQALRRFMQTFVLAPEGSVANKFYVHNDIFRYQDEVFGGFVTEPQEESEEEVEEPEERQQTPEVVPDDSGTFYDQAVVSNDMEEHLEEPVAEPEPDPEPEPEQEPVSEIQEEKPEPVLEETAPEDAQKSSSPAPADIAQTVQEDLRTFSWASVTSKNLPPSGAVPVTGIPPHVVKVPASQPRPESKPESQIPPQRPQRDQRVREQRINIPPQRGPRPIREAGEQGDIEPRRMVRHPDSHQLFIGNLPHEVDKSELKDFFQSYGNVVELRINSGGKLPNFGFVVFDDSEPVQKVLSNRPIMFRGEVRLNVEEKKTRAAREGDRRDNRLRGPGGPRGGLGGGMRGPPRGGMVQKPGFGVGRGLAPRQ
Method: RNA Bind-n-Seq
Form: RNA
Medium: in vitro
Tested at: 1 µM
Notes: whole 134-nt RNA, ends assumed
Added: 150 mM KCl
Baseline: input library
Reading: higher = stronger binding
Shared flanks, not repeated: GGGAGUUCUACAGUCCGACGAUC … UGGAAUUCUCGGGUGUCAAGG
Sequence	log2 enrichment
AACUGGAAGAACAGACCCGUAGGGCUCUGGAACUUGAGCAGGAACGGAAGCGUGCCCAGAGCGAGGCUGAAAAGCUGGCCAAGGAGCGUC	-0.307
AGUCCUGUGCUACACAUCGUAUGUACCGAAUCGGGAAAGGGUUUGGGUUUUUUUGGGAAAGUAUUAUGUUACGCCGUUCGGAUCUGCACU	0.197
UAACUUUAGAGGAGGAUCUGAUGGAUAUGGCAGUGGACGUGGAUUUGGGGAUGGCUAAAAUGGGUAUGGAGGAGGACCUGGAGGUGGCAA	-0.248
GUCCUGUGCUACACAUCGUAUGUACCGAAUCAAACCCCCAAACCCCCAAACCCCCAAAAAAGUAUUAUGUUACGCCGUUCGGAUCUGCAC	-0.215
UCCUGUGCUACACAUCGUAUGUACCGAAUCGGGGUUUUUGGGUUUUUGGGUUUUUGGGGAAAGUAUUAUGUUACGCCGUUCGGAUCUGCA	0.0887
UCCUCAAGUCCUGUGCUACACAUCGUAUGUACCGAAUCGGGUGGUGGUGGGAAAGUAUUAUGUUACGCCGUUCGGAUCUGCACUUCCAGC	-0.102
GUCCUGUGCUACACAUCGUAUGUACCGAAUCGGGAAAAAGGAAAAAGGGGAAAAAGGGAAAGUAUUAUGUUACGCCGUUCGGAUCUGCAC	0.0985
AAGUCCUGUGCUACACAUCGUAUGUACCGAAUCGGGAAAGGGAGGGAAAAAAAGGGAAAGUAUUAUGUUACGCCGUUCGGAUCUGCACUU	0.248
UGGGAAGUGGAUUUUGUUUAUUUUUUUAGCUCAUUUCCAGGGGUGGGAAUUUUUUUUUAAUAUGUGUCAUGAAUAAAGUUGUUUUUGAAA	1.62

Set 2
Target: RNA binding protein fox-1 homolog 2, RRM domain, GST-SBP tag (RBFOX2, Homo sapiens, UniProt O43251-10, residues 100-194)
Method: RNA Bind-n-Seq
Form: RNA
Medium: in vitro
Tested at: 365 nM
Notes: natural RNA segment, single round, ends assumed
Baseline: no-protein control
Reading: higher = stronger binding
Shared flanks, not repeated: GGGAGUUCUACAGUCCGACGAUC … UGGAAUUCUCGGGUGCCAA
Target sequence (chain): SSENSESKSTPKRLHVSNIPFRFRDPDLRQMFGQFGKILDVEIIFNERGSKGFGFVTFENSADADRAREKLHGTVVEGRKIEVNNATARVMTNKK
Sequence	RBNS enrichment (R)
UUAGCUGGGUCUUUCAUAGCCAAACUUGUAUAUUUAAAUUCUUUGUAAUAAUAAUAUCCAAAUCAUCAUCUUGUGUCAUGGUUUAAUUUUUCUAGGUAAGAAAAUAUGUU	0.487
AAUAACUAAGAGAUUCUUCUAGGGGUAGCUGGUGGUUGUGCCUUUUGUAGGCUGUUCCCUUUGCCUUAAACCUGAAGAUGUCUCCUCAAGCCUGUGGGCAGCAUGCCCAG	4.48
GACAUCAGGACCUGAGAUGACCGCUGUGUGGCGCUCUCUCCCUGGGCAGGGUGGAUGCCACAGGCCCCUCUGGCUCCCAGGUGCUGCUUCUCCACAGGUGCGGCCUGGCC	0.304
UUAUUAAAACAAAAGGGUGUAUAGUGUUCACAAACUGUGAAAAUAGUGUAAGAACUGUACAUUGUGAGCUCUGGUUAUUUUUCUCUUGUACCAUAGAAAAAUGUAUAAAA	0.391
GGCUCCAACUUCAGGAAAUAAAUUUCCCAUUGCGAGGGACCCAGCUCUGUUUCUGCUGCUUCCAUCAAAGCCAAAAGGACCUACACUAAAGAAAUGCAGGGUGGGGGUGG	0.445
UCUUUUUCCAGUUUACACAGACCGGUCCCCACAGUGCAGAAUCCAUUUCUCUUUCGUCUCAACAGUAGACAACUAGGAUGUGGAUCUCAUAUUUAUAAGUAUGCAUUUUA	0.653
UGCUUUUAGUGUUUGUACUGCUGCUGGUCAGGACAUUAAAAUAUUGAAGUGUUUUUAAAAAUUAAAGAAGAAGAAAAGUAAAAGAGCUUACCACUGGCGCCUAUGCGAUC	0.696
AUUAUUACAACCAUGUACAAAGGGACUCCACUCCACUGUCCCUGUACAAGGACUUUUGACAGUUUAGUGCUUAGUAACUAGUCUUAGUUUUCUUCCUUUUAGAAAAACUG	0.37

Set 3
Target: Histone acetyltransferase KAT6A, winged helix 1, GST fusion (KAT6A, Homo sapiens, UniProt Q92794, residues 1-85)
Method: protein binding microarray
Form: double-stranded DNA, one strand shown
Medium: in vitro
Tested at: not given
Notes: 8-mer, flanks averaged, mean of 2 arrays, mostly near background
Baseline: not given
Reading: higher = stronger binding
Target sequence (chain): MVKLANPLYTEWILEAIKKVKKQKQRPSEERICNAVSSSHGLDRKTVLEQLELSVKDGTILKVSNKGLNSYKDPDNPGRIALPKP
Sequence	E-score
ACCTTCAA	-0.103
CTTAATAA	-0.0398
TCATTAAA	-0.0804
GAAAGGCC	0.206
GACTGAAC	-0.0284
CGTGTCAA	0.088
GTCTGGAA	-0.123
GCGGTGAC	0.213
GGTGGATA	-0.0525
ATATTGGG	-0.0665
CTTAGAAA	-0.118
ATGATCTG	-0.259
CCGTTAAC	0.313
AGTGTCAG	-0.152
CAGGAGGG	-0.244
AAGTTGCC	0.0166
CGAAGGAG	-0.0204
ACTTCCAC	-0.12
ACCCTCAG	-0.201
ACCACACT	-0.175
AGTGGTAG	-0.14
CCAAGGGA	-0.199
AACCACTC	-0.121
GTTAGGAA	-0.126

Set 4
Target: Interferon regulatory factor 7, full length, phosphomimetic (IRF7, Homo sapiens, UniProt Q92985, residues 1-503, S471D/S472D/S475D/S476D/S477D/S483D/S484D/S487D)
Method: protein-binding microarray
Form: double-stranded DNA, one strand shown
Medium: in vitro
Tested at: 2200 nM top
Notes: 60-bp whole probe
Added: salmon DNA 0.4 mg/ml
Baseline: random background probes
Reading: higher = stronger binding
Shared flanks, not repeated: GCCTAGCAC … GTCTTGATTCGCTTGACGCTGCTG
Construct (chain): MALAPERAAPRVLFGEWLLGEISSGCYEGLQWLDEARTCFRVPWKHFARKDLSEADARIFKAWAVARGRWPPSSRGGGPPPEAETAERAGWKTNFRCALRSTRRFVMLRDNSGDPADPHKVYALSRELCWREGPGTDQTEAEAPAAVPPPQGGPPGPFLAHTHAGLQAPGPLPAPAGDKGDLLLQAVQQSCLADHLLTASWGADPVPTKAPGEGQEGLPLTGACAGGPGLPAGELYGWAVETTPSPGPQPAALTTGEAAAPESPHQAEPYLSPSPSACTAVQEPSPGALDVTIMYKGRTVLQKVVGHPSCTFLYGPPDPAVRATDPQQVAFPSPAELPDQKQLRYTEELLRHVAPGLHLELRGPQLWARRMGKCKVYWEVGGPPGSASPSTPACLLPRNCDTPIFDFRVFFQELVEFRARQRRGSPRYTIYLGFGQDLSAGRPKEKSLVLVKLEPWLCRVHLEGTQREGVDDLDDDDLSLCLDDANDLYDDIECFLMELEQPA
Sequence	fitted relative affinity
GACGATCTCAGATTGGAGACGTGCTAG	-0.333 z-score
TTAGAACTGGGGTATCGAATAGTGCTA	-0.145 z-score
TTAGGACTGCTTTGCCTTTAGTGCTAG	0.285 z-score
GACGATTTCAGTTTGGAGACGTGCTAG	2.22 z-score
TTAGGACTGGGTCTCGGGTAGTGCTAG	-0.707 z-score
GACGGTATCGACACTGGGGATGTGCTA	-0.363 z-score
TCATGCTCATTTTTCAGACTGTGCTAG	1.28 z-score
GACGGTATGCTTATCCTGACGTGCTAG	0.415 z-score
TTAGAACTGAGTTTCGAGTAGTGCTAG	1.78 z-score
TCATTTTTATTTTCTGAACTGTGCTAG	2.86 z-score
TGAGGTTCCGGTTTCGGTTAGTGCTAG	8.22 z-score
GACGTTATCGGGTATCGGGACGTGCTA	0.31 z-score
GACGGTATCAGACTGGAGACGTGCTAG	-0.0716 z-score
ATCCTTGTCCCTCCGGGAGCGTGCTAG	0.508 z-score
GACGATTTCAATTCCGAGACGTGCTAG	0.93 z-score
GACGATATTAGTCTCGAGACGTGCTAG	0.498 z-score
GACGGTTTCGGTTCCGGGGCGTGCTAG	11.4 z-score
TCAGAAATCAACTTTTTTACTGTGCTA	-0.605 z-score
TTAGAACTGGGGTTACGATTAGTGCTA	-0.0506 z-score

Excerpt of the above (set 3):
Sequence	E-score
CTTAGAAA	-0.118
ATGATCTG	-0.259
CCGTTAAC	0.313
AGTGTCAG	-0.152
CAGGAGGG	-0.244
AAGTTGCC	0.0166
CGAAGGAG	-0.0204
ACTTCCAC	-0.12
ACCCTCAG	-0.201
ACCACACT	-0.175
